Results gathered from unrelated publications.
Every numbered part comes from another study and shows a few of its results, in no order. pEC50: −log10 of the molar value.
UniProt Q15208, sequence (whole entry, looked up): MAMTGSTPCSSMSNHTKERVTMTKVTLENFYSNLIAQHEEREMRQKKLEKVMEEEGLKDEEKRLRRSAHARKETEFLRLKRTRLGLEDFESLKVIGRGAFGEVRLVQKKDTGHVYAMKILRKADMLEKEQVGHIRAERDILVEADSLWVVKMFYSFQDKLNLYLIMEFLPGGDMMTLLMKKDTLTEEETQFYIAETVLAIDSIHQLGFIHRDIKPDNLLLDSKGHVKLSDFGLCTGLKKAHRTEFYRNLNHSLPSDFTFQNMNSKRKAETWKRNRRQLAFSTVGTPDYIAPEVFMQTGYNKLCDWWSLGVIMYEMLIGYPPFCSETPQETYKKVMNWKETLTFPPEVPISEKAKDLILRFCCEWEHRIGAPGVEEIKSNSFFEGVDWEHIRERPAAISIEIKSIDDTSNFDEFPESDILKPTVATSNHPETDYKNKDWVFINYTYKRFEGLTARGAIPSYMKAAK
UniProt Q9NRM7, sequence (whole entry, looked up): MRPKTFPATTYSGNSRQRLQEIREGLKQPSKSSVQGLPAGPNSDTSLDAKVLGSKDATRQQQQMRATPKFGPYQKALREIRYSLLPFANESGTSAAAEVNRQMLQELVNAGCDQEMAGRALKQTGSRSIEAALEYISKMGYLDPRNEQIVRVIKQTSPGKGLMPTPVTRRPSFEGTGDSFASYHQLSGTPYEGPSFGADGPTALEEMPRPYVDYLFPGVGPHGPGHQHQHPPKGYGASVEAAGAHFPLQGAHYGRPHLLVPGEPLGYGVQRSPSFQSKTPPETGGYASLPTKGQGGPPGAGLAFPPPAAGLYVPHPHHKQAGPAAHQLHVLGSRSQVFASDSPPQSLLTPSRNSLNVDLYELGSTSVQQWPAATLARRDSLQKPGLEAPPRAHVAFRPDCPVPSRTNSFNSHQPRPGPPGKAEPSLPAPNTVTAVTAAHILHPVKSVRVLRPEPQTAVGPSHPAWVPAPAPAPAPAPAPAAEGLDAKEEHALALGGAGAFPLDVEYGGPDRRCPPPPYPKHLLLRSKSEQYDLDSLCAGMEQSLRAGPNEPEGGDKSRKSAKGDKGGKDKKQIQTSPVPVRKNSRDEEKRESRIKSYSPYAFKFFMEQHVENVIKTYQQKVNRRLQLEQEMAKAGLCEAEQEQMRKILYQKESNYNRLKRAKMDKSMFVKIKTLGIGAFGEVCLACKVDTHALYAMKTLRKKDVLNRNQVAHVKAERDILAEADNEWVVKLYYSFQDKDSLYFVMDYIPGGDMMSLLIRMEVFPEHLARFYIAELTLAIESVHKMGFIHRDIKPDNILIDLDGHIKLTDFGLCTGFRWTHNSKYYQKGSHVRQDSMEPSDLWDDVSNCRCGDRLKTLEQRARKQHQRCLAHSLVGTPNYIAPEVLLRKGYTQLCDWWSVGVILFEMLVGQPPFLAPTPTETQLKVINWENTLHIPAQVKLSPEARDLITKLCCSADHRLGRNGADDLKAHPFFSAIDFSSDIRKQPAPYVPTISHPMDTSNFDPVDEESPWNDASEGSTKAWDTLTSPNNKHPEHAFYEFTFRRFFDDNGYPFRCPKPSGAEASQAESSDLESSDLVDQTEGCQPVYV
UniProt Q9H3Y6, sequence (whole entry, looked up): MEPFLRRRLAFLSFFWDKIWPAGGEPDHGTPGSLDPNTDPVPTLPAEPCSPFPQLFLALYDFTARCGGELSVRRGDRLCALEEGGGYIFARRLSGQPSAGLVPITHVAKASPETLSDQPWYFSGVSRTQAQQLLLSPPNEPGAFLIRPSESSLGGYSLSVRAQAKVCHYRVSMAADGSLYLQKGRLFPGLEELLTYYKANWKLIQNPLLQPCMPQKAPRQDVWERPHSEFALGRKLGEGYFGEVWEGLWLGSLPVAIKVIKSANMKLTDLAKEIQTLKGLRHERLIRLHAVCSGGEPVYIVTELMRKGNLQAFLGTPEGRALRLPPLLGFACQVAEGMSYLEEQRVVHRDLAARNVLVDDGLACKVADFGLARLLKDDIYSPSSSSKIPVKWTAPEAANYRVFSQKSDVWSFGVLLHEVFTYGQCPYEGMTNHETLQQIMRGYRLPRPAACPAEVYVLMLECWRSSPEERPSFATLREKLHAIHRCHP
UniProt Q13464, sequence (whole entry, looked up): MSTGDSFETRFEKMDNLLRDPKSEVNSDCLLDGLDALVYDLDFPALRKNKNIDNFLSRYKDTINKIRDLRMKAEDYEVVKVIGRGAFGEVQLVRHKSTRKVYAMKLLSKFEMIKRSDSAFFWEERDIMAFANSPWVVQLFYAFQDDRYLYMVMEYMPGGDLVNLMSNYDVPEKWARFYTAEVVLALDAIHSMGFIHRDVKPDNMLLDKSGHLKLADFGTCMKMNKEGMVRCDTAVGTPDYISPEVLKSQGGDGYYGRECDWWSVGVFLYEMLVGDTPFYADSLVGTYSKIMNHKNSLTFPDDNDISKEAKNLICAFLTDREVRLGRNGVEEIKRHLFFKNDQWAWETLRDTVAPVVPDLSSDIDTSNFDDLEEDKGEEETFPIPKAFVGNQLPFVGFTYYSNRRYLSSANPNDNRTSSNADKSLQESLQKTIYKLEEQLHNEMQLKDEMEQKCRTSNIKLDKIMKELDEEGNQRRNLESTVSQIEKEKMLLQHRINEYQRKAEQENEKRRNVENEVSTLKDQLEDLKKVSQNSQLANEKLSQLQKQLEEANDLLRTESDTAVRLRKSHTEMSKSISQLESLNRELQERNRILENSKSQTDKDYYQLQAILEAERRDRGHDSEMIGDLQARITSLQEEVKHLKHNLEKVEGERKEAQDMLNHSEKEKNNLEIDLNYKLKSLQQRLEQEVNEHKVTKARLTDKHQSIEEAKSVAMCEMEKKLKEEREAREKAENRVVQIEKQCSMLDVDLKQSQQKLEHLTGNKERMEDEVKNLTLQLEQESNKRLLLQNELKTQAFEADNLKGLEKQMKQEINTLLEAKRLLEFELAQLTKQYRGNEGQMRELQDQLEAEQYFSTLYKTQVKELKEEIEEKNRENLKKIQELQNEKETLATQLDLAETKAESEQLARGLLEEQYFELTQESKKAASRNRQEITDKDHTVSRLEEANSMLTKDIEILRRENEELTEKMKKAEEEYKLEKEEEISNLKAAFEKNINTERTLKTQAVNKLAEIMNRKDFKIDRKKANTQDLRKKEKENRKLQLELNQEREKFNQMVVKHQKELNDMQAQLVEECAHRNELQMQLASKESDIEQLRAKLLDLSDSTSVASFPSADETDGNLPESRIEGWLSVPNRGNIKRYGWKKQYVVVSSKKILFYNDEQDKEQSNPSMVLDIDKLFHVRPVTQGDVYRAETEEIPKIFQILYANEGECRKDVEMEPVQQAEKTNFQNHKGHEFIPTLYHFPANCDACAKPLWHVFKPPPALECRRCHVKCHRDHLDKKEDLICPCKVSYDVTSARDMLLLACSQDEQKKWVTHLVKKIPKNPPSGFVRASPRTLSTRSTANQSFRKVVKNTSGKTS

Sample 1
Compound: CC1=C(C#N)C(c2ccc3c(c2)c(NC(=O)c2ccccc2C)nn3C)C(C#N)=C(C)N1
Effect on: cell-free assay
Technique: competition with immobilised ligand
Tested at: 1 µM
target	remaining binding
STK4 (Homo sapiens, UniProt Q13043)	80%
Tyrosine-protein kinase ABL1, phosphorylated (ABL1, Homo sapiens, UniProt P00519, Q252H)	73%
NLK (Homo sapiens, UniProt Q9UBE8)	100%
SRMS (Homo sapiens, UniProt Q9H3Y6)	57%
NEK10 (Homo sapiens, UniProt Q6ZWH5)	90%
CIT (Homo sapiens, UniProt O14578)	55%
DDR1 (Homo sapiens, UniProt Q08345)	74%
ROCK1 (Homo sapiens, UniProt Q13464)	100%
RAF1 (Homo sapiens, UniProt P04049)	100%
MYLK (Homo sapiens, UniProt Q15746)	100%
CAMK2A (Homo sapiens, UniProt Q9UQM7)	90%
TNK2 (Homo sapiens, UniProt Q07912)	86%
STK38 (Homo sapiens, UniProt Q15208)	96%
Ribosomal protein S6 kinase alpha-2, C-terminal kinase domain (RPS6KA2, Homo sapiens, UniProt Q15349)	94%
EGFR (Homo sapiens, UniProt P00533, L861Q)	69%
LATS2 (Homo sapiens, UniProt Q9NRM7)	100%
CLK1 (Homo sapiens, UniProt P49759)	87%

Sample 2
Target: Ephrin type-A receptor 4 (EPHA4, Homo sapiens, UniProt P54764)
UniProt P54764, sequence (whole entry, looked up): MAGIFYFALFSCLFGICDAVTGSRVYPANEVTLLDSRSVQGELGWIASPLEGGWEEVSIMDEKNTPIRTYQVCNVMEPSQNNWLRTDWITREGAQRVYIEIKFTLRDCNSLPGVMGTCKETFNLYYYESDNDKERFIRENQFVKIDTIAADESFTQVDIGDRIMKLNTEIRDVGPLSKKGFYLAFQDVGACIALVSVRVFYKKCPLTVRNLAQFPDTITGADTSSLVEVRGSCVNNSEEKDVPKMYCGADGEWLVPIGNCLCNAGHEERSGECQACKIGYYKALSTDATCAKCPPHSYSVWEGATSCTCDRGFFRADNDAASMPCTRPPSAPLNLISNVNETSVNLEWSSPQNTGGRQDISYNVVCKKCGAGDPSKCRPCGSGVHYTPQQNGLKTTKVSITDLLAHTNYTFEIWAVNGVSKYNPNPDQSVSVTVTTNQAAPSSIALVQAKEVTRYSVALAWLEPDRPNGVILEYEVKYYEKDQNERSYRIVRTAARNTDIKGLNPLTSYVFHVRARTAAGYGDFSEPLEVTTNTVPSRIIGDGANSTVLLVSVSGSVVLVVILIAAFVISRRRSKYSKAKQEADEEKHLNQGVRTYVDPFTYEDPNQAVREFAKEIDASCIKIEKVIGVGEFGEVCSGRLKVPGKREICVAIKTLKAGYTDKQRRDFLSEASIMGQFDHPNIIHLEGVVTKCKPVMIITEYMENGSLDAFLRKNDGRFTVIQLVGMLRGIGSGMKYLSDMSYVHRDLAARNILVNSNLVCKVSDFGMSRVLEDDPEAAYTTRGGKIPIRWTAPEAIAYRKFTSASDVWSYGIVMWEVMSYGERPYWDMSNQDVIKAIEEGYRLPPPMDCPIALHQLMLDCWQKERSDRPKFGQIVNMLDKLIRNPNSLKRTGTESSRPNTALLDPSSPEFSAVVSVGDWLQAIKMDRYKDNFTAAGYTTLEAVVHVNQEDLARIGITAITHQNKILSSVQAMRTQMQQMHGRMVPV
Effect on: enzyme activity
Action: inhibitor
Tested at: 0.5 µM
Baseline: control
Structure (SMILES)	remaining activity [%]
COc1ccc(OC)c2c(=S)c3ccccc3[nH]c12	88.8
CC(C)[C@H](CO)Nc1nc(Nc2cc(N)cc(Cl)c2)c2ncn(C(C)C)c2n1	61.4
Nc1ncnc2n[nH]c(Nc3ccc(F)cc3)c12	90.1
CO[C@H]1C[C@@H]2CC[C@@H](C)[C@@](O)(O2)C(=O)C(=O)N2CCCC[C@H]2C(=O)O[C@H]([C@H](C)C[C@@H]2CC[C@@H](O)[C@H](OC)C2)CC(=O)[C@H](C)/C=C(\C)[C@@H](O)[C@@H](OC)C(=O)[C@H](C)C[C@H](C)/C=C/C=C/C=C/1C	115
Cc1ccc(Nc2nccc(N(C)c3ccc4c(C)n(C)nc4c3)n2)cc1S(N)(=O)=O	94.5
Nc1[nH]nc2nc3ccccc3nc12	86.5
O=S(=O)(c1cccc2cnccc12)N1CCCNCC1	98.5
Cc1ccc(NC(=O)c2ccc(CN3CCN(C)CC3)cc2)cc1Nc1nc(-c2cccnc2)cs1	105
COc1ccc(CNC(=O)Nc2ncc([N+](=O)[O-])s2)cc1	101
COc1cc2ncnc(Nc3ccc(Oc4ccccc4)cc3)c2cc1OC	106
C#Cc1cccc(Nc2ncnc3cc(OCCOC)c(OCCOC)cc23)c1	98.4
O=C1NC(=O)C(c2cn(CCCn3ccnc3)c3ccccc23)=C1Nc1ccccc1	111
COc1cc2ncnc(Nc3ccc(F)c(Cl)c3)c2cc1OCCCN1CCOCC1	90.2
Cn1sc(=O)n(Cc2ccccc2)c1=O	110
Oc1ccc(-c2nc(-c3ccncc3)c(-c3ccc(F)cc3)[nH]2)cc1	96.2

Sample 3
Host: mouse
Matrix: microsomes or S9
Tested at: 2 µM
Time: 0.5 h
SMILES	remaining compound [%]
c1ccc(-c2cn3c4ccccc4n(CCN4CCOCC4)c3n2)cc1	0.0311
O=C(C1=Cc2ccccc2OC=C1)N1CCCCC1c1ccccn1 (centres unmarked)	4.55
Cc1ccccc1CNc1ccccc1NC(=O)c1ccc(C(=O)c2cc[nH]c2)cc1	21.1
Cc1noc(C)c1Cc1nc(-c2c(Cl)nc3sccn23)no1	2.87
O=S1(=O)CCN2N=C(c3ccccc3)C(c3ccccc3)=NC2=N1	88.1
Cc1ccccc1C(C)NS(=O)(=O)c1ccc(Cl)c(-c2nnn[nH]2)c1 (centres unmarked)	> 100

Sample 4
Target: Beta-1 adrenergic receptor (ADRB1, Homo sapiens, UniProt P08588)
UniProt P08588, sequence (whole entry, looked up): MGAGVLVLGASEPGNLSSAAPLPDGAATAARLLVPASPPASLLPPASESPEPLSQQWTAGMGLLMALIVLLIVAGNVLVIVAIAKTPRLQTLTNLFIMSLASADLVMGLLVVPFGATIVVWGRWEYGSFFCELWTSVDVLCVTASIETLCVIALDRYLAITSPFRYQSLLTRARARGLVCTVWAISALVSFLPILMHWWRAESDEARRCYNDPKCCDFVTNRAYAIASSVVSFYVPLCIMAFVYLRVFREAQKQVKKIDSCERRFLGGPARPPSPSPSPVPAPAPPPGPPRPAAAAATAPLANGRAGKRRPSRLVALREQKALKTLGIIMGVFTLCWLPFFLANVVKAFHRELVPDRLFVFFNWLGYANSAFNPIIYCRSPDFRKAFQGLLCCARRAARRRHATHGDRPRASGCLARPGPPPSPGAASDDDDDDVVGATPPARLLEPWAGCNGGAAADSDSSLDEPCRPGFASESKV
Action: agonist
SMILES	pEC50
O=C1CCCN1CCC1CCN(Cc2cccc(OCC(O)CN3CCOCC3)c2)CC1 (centres unmarked)	≤ 4.00
CN(C)c1ccc(CN2CC[C@H](c3nc4ccc(C(F)(F)F)cc4[nH]3)C2)cc1	≤ 4.00
O=C(O)c1ccnc(-c2ccnc(NCC(O)c3ccccc3Cl)n2)c1 (centres unmarked)	≤ 4.00
